Measurements pooled from the literature.
Numbered parts are unrelated; each lists some results of a single study. “And” joins repeats or separate records; there may be more than shown.

Sample 1
Target: Glycogen synthase kinase-3 alpha (GSK3A, Homo sapiens, UniProt P49840)
UniProt P49840, sequence (whole entry, looked up): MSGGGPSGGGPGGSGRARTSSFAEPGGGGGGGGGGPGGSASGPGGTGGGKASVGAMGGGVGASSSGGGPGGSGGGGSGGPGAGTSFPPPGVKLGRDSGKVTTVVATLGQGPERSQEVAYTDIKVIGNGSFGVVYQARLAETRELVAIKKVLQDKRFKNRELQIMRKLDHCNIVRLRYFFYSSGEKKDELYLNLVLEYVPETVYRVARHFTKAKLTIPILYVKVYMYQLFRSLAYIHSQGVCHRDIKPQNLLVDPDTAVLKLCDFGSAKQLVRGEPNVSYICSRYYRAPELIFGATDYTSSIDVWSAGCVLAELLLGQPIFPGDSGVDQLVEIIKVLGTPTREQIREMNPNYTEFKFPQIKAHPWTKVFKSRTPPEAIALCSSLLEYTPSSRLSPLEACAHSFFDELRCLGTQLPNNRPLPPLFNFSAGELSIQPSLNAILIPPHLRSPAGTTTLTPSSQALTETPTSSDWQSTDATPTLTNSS
Observed: enzyme activity
Action: inhibitor
Tested at: 0.5 µM
Baseline: control
Compound | remaining activity [%]
O=C1NC(=O)/C(=C/c2ccc3c(c2)OC(F)(F)O3)S1 | 88.1
c1cc(-c2cnn3cc(-c4ccc(OCCN5CCCCC5)cc4)cnc23)ccn1 | 80.7
NC(=O)c1cccc(-c2cc(Nc3ccc(OC(F)(F)F)cc3)ncn2)c1 | 93.9
NC(=O)c1ccc(-c2nc(-c3ccc4c(c3)OCCO4)c(-c3ccccn3)[nH]2)cc1 | 103
O=C1c2ccccc2-c2nc3nnnn3nc21 | 88.7
FC(F)(F)c1ccc(/C=C/c2nc(COc3ccc(CCCCn4ccnn4)cc3)co2)cc1 | 102
Nc1nc(Nc2ccc(S(N)(=O)=O)cc2)nn1C(=S)Nc1c(F)cccc1F | 6.3
COc1cc2c(N3CCN(C(=O)Nc4ccc(OC(C)C)cc4)CC3)ncnc2cc1OCCCN1CCCCC1 | 105
O=C(O)/C=C/c1cc(Br)c(Br)c(Br)c1Br | 91.5
N#CC(c1ccnc(NCCc2cccnc2)n1)c1nc2ccccc2s1 (stereo not shown) | 2.42
C[C@@H](N)[C@H]1CC[C@H](C(=O)Nc2ccncc2)CC1 | 103
O=Nc1c(-c2c(O)[nH]c3ccccc23)[nH]c2ccccc12 | 16.5
CC(C)(C)c1nc2c3cc[nH]c(=O)c3c3cc(F)ccc3c2[nH]1 | 121
Clc1ccc(Nc2nnc(Cc3ccncc3)c3ccccc23)cc1 | 103
CCCCc1c(-c2ccc(O)cc2)[nH]c2nccnc12 | 57.7
CCN(CC)CCCCN1c2ccccc2Oc2ccc(Cl)cc21 | 108
O=c1c(-c2ccc(F)cc2)c(-c2ccncc2)[nH]n1-c1ccc(Cl)cc1 | 93.3
N#C/C(=C(/N)SC1C=CC=CC1)c1cccc(C(O)c2ccncc2)c1 (stereo not shown) | 103
CNc1cc2c(Nc3cccc(Br)c3)ncnc2cn1 | 95.9
COc1cc2c(Nc3ccc(Br)cc3F)ncnc2cc1OCC1CCN(C)CC1 | 103
CC(C)n1cnc2c(Nc3cccc(Cl)c3)nc(NCCO)nc21 | 103
O=C(c1ccccc1)c1ccc(N2CCOCC2)cc1O | 102
CC(C)N(CCC(=O)c1ccc2ccccc2c1)Cc1ccccc1 | 98.8

Sample 2
Species: mouse
Sample: microsomes or S9
Tested at: 2 µM
Time: 0.5 h
SMILES | remaining compound [%]
c1ccc(-c2nnc(CNCCN3CCOCC3)o2)cc1 | 88.8
COC(=O)c1sccc1NC(=O)Nc1c(C)nn(Cc2ccccc2C)c1C | 1.34
CC1COc2c(N3CC4CC3CCN4C)c(F)cc3c(=O)c(C(=O)O)cn1c23 (stereo not shown) | 77.5
Cc1coc(C)c1C(=O)CC1(O)C(=O)Nc2cc(Cl)cc(Cl)c21 (stereo not shown) | 56.6
O=C(NC1CCN(Cc2ccc(OC3CCNCC3)c(Br)c2)CC1)c1cc2cc(Br)ccc2s1 | 68.1
CC(C)CC(=O)NCC12CCCC=C1N(C)C(=O)CC2 (stereo not shown) | 34
NC(CCc1c(Cl)cccc1Cl)c1ccc(Cl)cc1Cl (stereo not shown) | 1.24
CN(C)S(=O)(=O)CCCS(=O)(=O)N(C)Cc1ccc(Br)cc1 | 2.22
N=C(N)Nc1ccc(OCCCCCOc2ccc(NC(=N)N)cc2)cc1 | 48.4

Sample 3
Compound: CC(=O)N[C@@H](Cc1c[nH]c2ccccc12)C(=O)N[C@@H](CCC(=O)C=[N+]=[N-])C(=O)OC(C)C
Species: C57BL/6 CES1-/- mice, EL4 tumour
Sample: EL4 tumour
Route: subcutaneous
Dose: 0.3 mg/kg/day DON equivalent
Time: 5 days
technique | item | notes | direction | metabolite peak intensity
UPLC-MS/MS | FAD | – | – | 155000 a.u. and 149000 a.u. and 130000 a.u. and 153000 a.u. and 151000 a.u. and 175000 a.u.
UPLC-MS/MS metabolomics | glutamine | normalised to tissue mass | – | 2.44e+09 a.u. and 2.39e+09 a.u. and 2.42e+09 a.u. and 2.82e+09 a.u. and 2.4e+09 a.u. and 2.1e+09 a.u.
UPLC-MS/MS metabolomics | N-acetylleucine | normalised to tissue mass | higher = more metabolite | 88500 a.u. and 106000 a.u. and 115000 a.u. and 118000 a.u. and 141000 a.u. and 112000 a.u.
UPLC-MS/MS metabolomics | N-acetylalanine | normalised to tissue mass | higher = more metabolite | 5.33e+06 a.u. and 7.83e+06 a.u. and 6.73e+06 a.u. and 6.52e+06 a.u. and 7.75e+06 a.u. and 8.15e+06 a.u.
UPLC-MS/MS metabolomics | N-formylmethionine | normalised to tissue mass | higher = more metabolite | 484000 a.u. and 597000 a.u. and 482000 a.u. and 485000 a.u. and 306000 a.u. and 251000 a.u.
UPLC-MS/MS | N,N,N-trimethyl-5-aminovalerate | – | – | 1.26e+08 a.u. and 3.04e+08 a.u. and 3.36e+08 a.u. and 3.27e+08 a.u. and 2.06e+08 a.u. and 1.9e+08 a.u.
UPLC-MS/MS metabolomics | gamma-glutamylglycine | normalised to tissue mass | – | 6.36e+06 a.u. and 6.2e+06 a.u. and 1.02e+07 a.u. and 1.07e+07 a.u. and 3.59e+06 a.u. and 8.84e+06 a.u.
LC-MS/MS metabolomics | 4-guanidinobutanoate | normalised to tissue mass | higher = more metabolite | 6.15e+06 a.u. and 6.94e+06 a.u. and 4.03e+06 a.u. and 7.94e+06 a.u. and 4.61e+06 a.u. and 9.5e+06 a.u.

Sample 4
Cell line: mouse MPNST tumor cells
Technique: high-content immunofluorescence imaging
Item: nuclear SOX9
Tested at: 10 µM
Time: 12 h
Notes: mean of 2 replicates
Baseline: DMSO control
Direction: higher = more nuclear SOX9
Structure (SMILES) | nuclear SOX9 intensity
NC(=O)NC1NC(=O)NC1=O (stereo not shown) | 105 % of DMSO
O=C(CNC(=O)c1cccc(C(F)(F)F)c1)N[C@@H]1CCN(Cc2ccc(Cl)cc2)C1 | 131 % of DMSO
Cc1nn(C)c2nc(NNC(=O)Nc3cc(Cl)nc(Cl)c3)cc(C(C)C)c12 | 107 % of DMSO
N#C[C@@H]1CC[C@H](C#N)N1C(=O)CNC1(CO)CCCC1 | 115 % of DMSO
Cc1cccn2c(=O)c(-c3nnn[nH]3)cnc12 | 118 % of DMSO
CCCCN1CCCCC1C(=O)Nc1c(C)cccc1C (stereo not shown) | 109 % of DMSO
CC(=O)CC(c1ccccc1)c1c(O)c2ccccc2oc1=O (stereo not shown) | 106 % of DMSO
CC(=O)N(O)CCCCCNC(=O)CCC(=O)N(O)CCCCCNC(=O)CCC(=O)N(O)CCCCCN | 123 % of DMSO
Nc1ncnc2c1ncn2C1OC(COP(=O)(O)O)C(O)C1O (stereo not shown) | 101 % of DMSO

Single results of other studies
SMILES | cell line | test | conditions | scale | quantity | result
Cn1cncc1[C@@](O)(COc1ccc(C#N)cc1-c1ccc(OC(F)(F)F)cc1)c1ccc(C#N)cc1 | HEK293T | high-content imaging | 10 µM, 24 h | – | cells with fragmented nuclei | 4.97%
C[C@H](c1cccc(C#N)c1)n1cc(Cl)cc(C(N)=O)c1=N | sample D normal colon organoid | CellTiter-Glo | 1 µM, mean of replicates | baseline: DMSO | viability | 123%
CCC(=O)N[C@H]1CC[C@@H](C(=O)N(C)c2ccc(-c3nc4ccccc4o3)cc2)C1 | sample D normal colon organoid | CellTiter-Glo | 1 µM, mean of replicates | baseline: DMSO | viability | 58.9%

A few entries again (sample 3):
technique | item | notes | direction | metabolite peak intensity
UPLC-MS/MS | FAD | – | – | 155000 a.u. and 149000 a.u. and 130000 a.u. and 153000 a.u. and 151000 a.u. and 175000 a.u.
UPLC-MS/MS metabolomics | glutamine | normalised to tissue mass | – | 2.44e+09 a.u. and 2.39e+09 a.u. and 2.42e+09 a.u. and 2.82e+09 a.u. and 2.4e+09 a.u. and 2.1e+09 a.u.
UPLC-MS/MS metabolomics | N-acetylleucine | normalised to tissue mass | higher = more metabolite | 88500 a.u. and 106000 a.u. and 115000 a.u. and 118000 a.u. and 141000 a.u. and 112000 a.u.
UPLC-MS/MS metabolomics | N-acetylalanine | normalised to tissue mass | higher = more metabolite | 5.33e+06 a.u. and 7.83e+06 a.u. and 6.73e+06 a.u. and 6.52e+06 a.u. and 7.75e+06 a.u. and 8.15e+06 a.u.
UPLC-MS/MS metabolomics | N-formylmethionine | normalised to tissue mass | higher = more metabolite | 484000 a.u. and 597000 a.u. and 482000 a.u. and 485000 a.u. and 306000 a.u. and 251000 a.u.
UPLC-MS/MS | N,N,N-trimethyl-5-aminovalerate | – | – | 1.26e+08 a.u. and 3.04e+08 a.u. and 3.36e+08 a.u. and 3.27e+08 a.u. and 2.06e+08 a.u. and 1.9e+08 a.u.
